Published values of several laboratories.
Every numbered part comes from another study and shows a few of its results, in no order. Substitutions count along the parent as printed.

Set 1
Target: Centromere-binding protein 1, full length, His-tagged (CBF1, Saccharomyces cerevisiae, UniProt P17106, residues 1-351)
Chain of UniProt P17106 (whole entry, looked up): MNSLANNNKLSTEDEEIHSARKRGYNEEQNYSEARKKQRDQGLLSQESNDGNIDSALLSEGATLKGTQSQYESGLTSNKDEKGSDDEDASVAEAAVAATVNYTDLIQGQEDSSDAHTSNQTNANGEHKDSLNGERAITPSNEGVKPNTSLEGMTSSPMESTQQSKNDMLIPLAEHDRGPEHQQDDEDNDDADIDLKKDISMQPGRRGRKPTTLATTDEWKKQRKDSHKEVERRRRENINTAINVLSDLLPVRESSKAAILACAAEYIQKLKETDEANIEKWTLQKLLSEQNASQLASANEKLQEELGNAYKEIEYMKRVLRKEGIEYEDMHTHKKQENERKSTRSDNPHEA
Method: competition protein-binding microarray
Molecule type: double-stranded DNA, one strand shown
Sample: in vitro
Concentration: 2 µM
Setting: whole 60-bp probe, lowest competitor level
With: Pho4 competitor, 0.05 µM
Reading: higher = stronger binding
Endpoint: fluorescence intensity
All sequences stand within: … GTCTTGATTCGCTTGACGCTGCTG
Sequence = TGCGCAACAACTTTTCACGTGCGCTTATGTCTAGAA; result = 977 a.u.
Sequence = TGCGAAGGCACCTGGGTCGTGCCAGTATTTGGCGCC; result = 52.6 a.u.
Sequence = TGCGCAACAACTTGTCACCGGACTTTATGTCTAGAA; result = 98.6 a.u.
Sequence = CGTCCTAGCGATTGAGCCGTGGGTGCCATGAGGAAG; result = 68.4 a.u.
Sequence = TGCAGCACCCAGCTTCCCGTGTATCCATACCACCCT; result = 84 a.u.
Sequence = ACAACCGTCTATGATGACGTGTTGACATTATCAAAC; result = 99.5 a.u.
Sequence = AGTTGTAAGAATTTGCACGGGCCCACAAATCCGACA; result = 90.4 a.u.
Sequence = AAATTACTAAGTTTTCACGTGCGATACCCCGTATGA; result = 876 a.u.

Set 2
Target: RING finger protein unkempt homolog, zinc fingers 1-6, GST-SBP tag (UNK, Homo sapiens, UniProt Q9C0B0, residues 30-357)
Chain of UniProt Q9C0B0 (30-357, looked up): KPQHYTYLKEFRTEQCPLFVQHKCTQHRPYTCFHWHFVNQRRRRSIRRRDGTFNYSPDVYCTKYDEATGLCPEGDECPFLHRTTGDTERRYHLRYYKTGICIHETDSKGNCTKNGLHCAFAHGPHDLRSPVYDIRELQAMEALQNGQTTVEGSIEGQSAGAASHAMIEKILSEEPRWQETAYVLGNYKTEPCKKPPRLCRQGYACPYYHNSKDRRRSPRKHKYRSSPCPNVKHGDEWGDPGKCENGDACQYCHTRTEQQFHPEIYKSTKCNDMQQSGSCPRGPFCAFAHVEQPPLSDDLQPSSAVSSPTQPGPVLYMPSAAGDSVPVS
Method: RNA Bind-n-Seq
Molecule type: RNA
Sample: in vitro
Concentration: not given
Setting: RNA with constant flanks, ends assumed
Baseline: input RNA pool
Reading: higher = stronger binding
Endpoint: bound/input enrichment
All sequences stand within: GGGAGUUCUACAGUCCGACGAUC … CAACAGAGGAUUGAGCAUCA
Sequence = CUUCAGCUGUCUACACCACAGAAAGCAAGUCAACACCAAGUUUUAUUUUUGUUAUCAGAUGCCGCACAUGCUAAGAAUCCCACCCAUUCCAAUAAAAAACUACCUACCUCUGCUUCAGUU; result = 0.383 ratio
Sequence = UUUUAUGAACGACUGGCUGGCCAUGGUCCAAAACUAGGACCUGUCACUAGAAAGCAUCCUUCCGUUACCAGGUAUUUUACUUUCCCAUUUGAAGAGAUAGACUUCUCCAUGGAAGAAUCU; result = 0.152 ratio
Sequence = ACCACAGCACUUUGCAGGCAAGCAGGCCAAGAAGCCCUGUCAGUCCUCAGGUUCAGCAAGUCCCCGUGUCCUGAAAGCCACAGAAGUAAACAAGAGCUGCCGGCAGCUGAACAAUCGCUC; result = 0.144 ratio
Sequence = GGCUUUAAGUCUGUUGGGAAGCCAUAAGCCCUUGAUUCUGCAGCAUGAAAACCUAGAAACCACCGUUGACUUUAUAAAAAGCACGCUACCCAACCUUGGCUUGGUACAGAUGGAAAAGAC; result = 0.254 ratio
Sequence = UAUAUGUAUGUUUUCAUUCCUGUUUUGUACGAGUGCCUCAUUUUGUAGUCAUGAAAGUAACACCGUACCUUAAAUAAAAAUGUAAUGACUAAUCUAAGGUCUAGGAAUAACUAUUGUAGA; result = 0.543 ratio
Sequence = GUUCCCCUGUUGCUAAAUAAUGUGAAAGGGGAGCCCCCGGAGGACUCGUUAUCUGCCGAUCACUUCCAAACACAAACUGAGCCAGUGGACUUGUCAAUAAACAAAGCCAGGACGUCCCCU; result = 0.179 ratio
Sequence = AUUUCCAGUUGUCUGAGGUGGCCAGGACAUUACUCCCGUGCGCCUUACCCAUACUUCAGCCGCAGGCAUUUCUCAUUGAACUGUAGACCACCUUUUCUGUUUGAGUCUGGAACGCAGUUU; result = 0.321 ratio
Sequence = GGGAAGAAAUUCGGCAGUGAAUGAAGAUUCCUCUGCAUUUUAGCAUUGCUUUUUCUACUGCCGUUGGCUUUUGAAUGAGGAUGACAAUGGAAGAGAUGAAGAAUGAAGCUGAGACCACUU; result = 0.334 ratio

Mixed results
P1: PafA, mature enzyme, eGFP fusion (Elizabethkingia meningoseptica, UniProt Q9KJX5); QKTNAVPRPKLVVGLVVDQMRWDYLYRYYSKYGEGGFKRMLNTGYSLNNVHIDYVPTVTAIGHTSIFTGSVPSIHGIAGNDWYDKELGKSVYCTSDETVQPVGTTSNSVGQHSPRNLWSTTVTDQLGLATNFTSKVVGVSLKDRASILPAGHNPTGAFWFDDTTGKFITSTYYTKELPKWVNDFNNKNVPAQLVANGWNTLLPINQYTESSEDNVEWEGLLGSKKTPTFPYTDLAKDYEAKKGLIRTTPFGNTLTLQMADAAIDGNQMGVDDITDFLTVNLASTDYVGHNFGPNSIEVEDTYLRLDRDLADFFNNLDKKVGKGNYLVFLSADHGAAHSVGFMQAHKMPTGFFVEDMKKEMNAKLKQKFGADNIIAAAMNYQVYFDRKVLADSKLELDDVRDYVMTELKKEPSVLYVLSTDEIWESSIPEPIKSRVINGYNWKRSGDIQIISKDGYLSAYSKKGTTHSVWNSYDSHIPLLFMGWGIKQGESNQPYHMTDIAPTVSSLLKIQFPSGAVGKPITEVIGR
Molecule = P1 G340A; tested on = tungstate, free oxyanion; test = microfluidic competitive inhibition; test system = in vitro, cell-free expressed; conditions = not given, derived from inhibition constants, unchanged parent 2230 nM; scale = lower = stronger binding; endpoint = oxyanion analog dissociation constant; result = 1.97 µM
Molecule = ATP5PD (Homo sapiens, UniProt O75947); tested on = ATP5PF (Homo sapiens, UniProt P18859); test = cross-linking MS; test system = cells; conditions = with: BSPNO; endpoint = cross-linked residues; result = K63 to K79

Excerpt of the above (set 2):
Sequence = GGGAAGAAAUUCGGCAGUGAAUGAAGAUUCCUCUGCAUUUUAGCAUUGCUUUUUCUACUGCCGUUGGCUUUUGAAUGAGGAUGACAAUGGAAGAGAUGAAGAAUGAAGCUGAGACCACUU; result = 0.334 ratio
Sequence = ACCACAGCACUUUGCAGGCAAGCAGGCCAAGAAGCCCUGUCAGUCCUCAGGUUCAGCAAGUCCCCGUGUCCUGAAAGCCACAGAAGUAAACAAGAGCUGCCGGCAGCUGAACAAUCGCUC; result = 0.144 ratio
